Measured values pooled from the literature.
Lines come from different studies, so protocols differ.
T1: dsDNA, abasic THF site, position 11; chain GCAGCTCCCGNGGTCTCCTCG; chain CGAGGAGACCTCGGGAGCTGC
T2: DNA aptamer; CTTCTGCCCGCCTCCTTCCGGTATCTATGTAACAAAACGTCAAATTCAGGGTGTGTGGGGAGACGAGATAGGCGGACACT
T3: RNA riboswitch, preQ1 riboswitch (Thermoanaerobacter tengcongensis); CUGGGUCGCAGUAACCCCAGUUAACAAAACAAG
T4: dsDNA, self-complementary, T9 linker hairpin; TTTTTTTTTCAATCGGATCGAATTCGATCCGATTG
T5: TERRA RNA G4, 5-benzofuranyl uridine in one loop (Homo sapiens); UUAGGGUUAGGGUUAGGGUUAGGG
T6: T-box antiterminator RNA; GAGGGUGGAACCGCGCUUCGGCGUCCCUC
T7: ZTP riboswitch RNA (Fusobacterium ulcerans); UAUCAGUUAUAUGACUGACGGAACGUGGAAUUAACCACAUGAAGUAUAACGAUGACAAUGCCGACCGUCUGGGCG
T8: RNA duplex, 2'-OMe, pseudouridine, bulge, abasic (Homo sapiens); chain CAGAGUAAGUAU; chain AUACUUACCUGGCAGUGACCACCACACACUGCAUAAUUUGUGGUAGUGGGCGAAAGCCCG
UniProt P80188, sequence (whole entry, looked up): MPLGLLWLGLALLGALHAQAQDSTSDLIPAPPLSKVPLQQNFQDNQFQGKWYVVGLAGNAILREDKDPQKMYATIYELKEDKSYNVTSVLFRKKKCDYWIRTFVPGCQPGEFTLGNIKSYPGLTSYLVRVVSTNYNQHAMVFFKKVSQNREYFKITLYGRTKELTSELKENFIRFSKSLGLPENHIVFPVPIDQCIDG
UniProt Q9HB20, sequence (whole entry, looked up): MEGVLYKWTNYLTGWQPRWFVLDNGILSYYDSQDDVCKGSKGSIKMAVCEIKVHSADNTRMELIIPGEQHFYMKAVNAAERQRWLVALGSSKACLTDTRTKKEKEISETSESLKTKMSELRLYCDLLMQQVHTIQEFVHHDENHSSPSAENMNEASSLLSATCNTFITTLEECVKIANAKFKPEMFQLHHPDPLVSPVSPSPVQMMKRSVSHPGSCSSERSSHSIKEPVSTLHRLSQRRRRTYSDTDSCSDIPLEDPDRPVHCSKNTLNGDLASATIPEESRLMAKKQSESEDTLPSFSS

The Kd of `Cc1nc2nc(N)ccc2c(C)c1C` is reported as 0.111 µM (T1, dsDNA, abasic THF site, position 11; fluorescence titration; pH 7.0, 20 °C, NaCl 100 mM).
For `phosphatidylinositol 4-phosphate`, the Kd was 200 to 300 µM (PLEKHA3, PH domain (Homo sapiens, UniProt Q9HB20); DMPC/DHPC bicelles; pH 6.5, estimate, saturation not reached).
The Kd of `CC(C)=CCC[C@](C)(O[C@@H]1O[C@H](CO[C@@H]2O[C@H](CO)[C@@H](O)[C@H](O)[C@H]2O)[C@@H](O)[C@H](O)[C@H]1O)[C@H]1CC[C@]2(C)[C@@H]1[C@H](O)C[C@@H]1[C@@]3(C)CC[C@H](O[C@@H]4O[C@H](CO)[C@@H](O)[C@H](O)[C@H]4O[C@@H]4O[C@H](CO)[C@@H](O)[C@H](O)[C@H]4O)C(C)(C)[C@@H]3CC[C@]12C` is reported as 5.6 µM (T2, DNA aptamer; fluorescence of eluted aptamer; pH 8.5, room temperature).
`NCc1c[nH]c2nc(N)[nH]c(=O)c12` has a Kd of 0.027 µM (T3, RNA riboswitch, preQ1 riboswitch (Thermoanaerobacter tengcongensis); microscale thermophoresis; pH 7.5, KCl 100 mM, apparent, single-site fit).
`CN1CCN(c2ccc3nc(-c4ccc(N5C(=O)c6ccc7c8c(ccc(c68)C5=O)C(=O)N(c5ccc(-c6nc8ccc(N9CCN(C)CC9)cc8[nH]6)cc5)C7=O)cc4)[nH]c3c2)CC1` gave a Kd of 36.6 µM (T4, dsDNA, self-complementary, T9 linker hairpin; SPR; KCl 100 mM, two-site fit).
The Kd of `CN(C)c1ccc(Nc2c3ccc(NC(=O)CCN4CCCC4)cc3nc3cc(NC(=O)CCN4CCCC4)ccc23)cc1` is reported as 0.244 µM (T5, TERRA RNA G4, 5-benzofuranyl uridine in one loop (Homo sapiens); fluorescence titration; pH 7.5, 20 °C, NaCl 100 mM, apparent, parallel G-quadruplex).
The Kd of `CC(=O)c1ccc(NC(=O)OC[C@H]2OC(=O)N[C@@H]2CN2CCN(c3ccccc3)CC2)cc1` is reported as 3 µM (T6, T-box antiterminator RNA; FRET binding titration; 100 nM, 130 min, pH 6.5, 25 °C, NaCl 50 mM, single-site fit, added: MgCl2 5 mM).
`NC(=O)c1ncn(C2CCNCC2)c1N` has a Kd of 11 µM (T7, ZTP riboswitch RNA (Fusobacterium ulcerans); ITC; pH 7.4, 37 °C, KCl 150 mM).
`CCCCCCCCCCCCCCCC(=O)O` has a Kd of 2740 µM (LCN2 (Homo sapiens, UniProt P80188); binding, isothermal titration calorimetry; 25 °C, unreliable, far above titrant range).
`CN1CCN(c2ccc3nc(CN4C(=O)c5ccc6c7c(ccc(c57)C4=O)C(=O)N(Cc4nc5ccc(N7CCN(C)CC7)cc5[nH]4)C6=O)[nH]c3c2)CC1` gave a Kd of 55.2 µM (T4, dsDNA, self-complementary, T9 linker hairpin; SPR; KCl 100 mM, two-site fit).
`CC1(C)CC(Oc2ccc(-c3ccc(-c4cn[nH]c4)cc3O)nn2)CC(C)(C)N1` gave a Kd of 2.69 µM (T8, RNA duplex, 2'-OMe, pseudouridine, bulge, abasic (Homo sapiens); microscale thermophoresis; pH 7.0, 25 °C, NaCl 200 mM, with U1-C protein).

Some of these lines once more:
The Kd of `CN(C)c1ccc(Nc2c3ccc(NC(=O)CCN4CCCC4)cc3nc3cc(NC(=O)CCN4CCCC4)ccc23)cc1` is reported as 0.244 µM (T5, TERRA RNA G4, 5-benzofuranyl uridine in one loop (Homo sapiens); fluorescence titration; pH 7.5, 20 °C, NaCl 100 mM, apparent, parallel G-quadruplex).
